# Experimental data gathered from unrelated publications.
# Each line is one published result; not all experiments were run side by side. ± gives the spread as reported.
SMILES,assay,test system,conditions,how to read,endpoint,value
COc1cc2c(cc1OC)[C@@H]1Cc3ccc(OC)c(OC)c3CN1CC2,,rat plasma QC sample,"3200 ng/mL nominal, 15 days, -80 °C, high QC level storage stability",,measured concentration,3210 ± 59.1 ng/mL
COc1c(N2C[C@@H]3CCCN[C@@H]3C2)c(F)cc2c(=O)c(C(=O)O)cn(C3CC3)c12,,healthy human,"oral, 400 mg single dose, 1.5 to 3 h","reference: baseline, time-matched",change in QTcI,9.4 ms
COC(=O)N[C@H](C(=O)N[C@@H](Cc1ccccc1)[C@@H](O)CN(Cc1ccc(-c2ccccn2)cc1)NC(=O)[C@@H](NC(=O)OC)C(C)(C)C)C(C)(C)C,population PK model,"pregnant women, second trimester","oral, median, added: without tenofovir",,Vd/F,84 L
CN[C@H](CC(C)C)C(=O)N[C@H]1C(=O)N[C@@H](CC(N)=O)C(=O)N[C@H]2C(=O)N[C@H]3C(=O)N[C@H](C(=O)N[C@H](C(=O)O)c4cc(O)cc(O)c4-c4cc3ccc4O)[C@H](O)c3ccc(c(Cl)c3)Oc3cc2cc(c3O[C@@H]2O[C@H](CO)[C@@H](O)[C@H](O)[C@H]2O[C@H]2C[C@](C)(N)[C@H](O)[C@H](C)O2)Oc2ccc(cc2Cl)[C@H]1O,,"Sprague-Dawley rat, plasma","intraperitoneal, 150 mg/kg, of 24 h AUC",,AUC fraction within 6 h,> 90%
CN(C)C(=N)N=C(N)N,,"Sprague-Dawley rat, male, liver","oral, 1500 mg/kg, 24 h, single high dose",direction not given,hepatocyte vacuolization score,0
CC1(C)C2CCC1(C)C(OC(=O)C(O)Cc1ccc(O)c(O)c1)C2 (centres unmarked),,"Sprague-Dawley rat, plasma","intravenous, 6 mg/kg",,AUC(0-inf),392 ng·h/mL
O=C(O)[C@H]1/C(=C/CO)O[C@@H]2CC(=O)N21,,rat plasma,"300 ng/mL, three freeze-thaw cycles",,measured concentration,291 ± 15 ng/mL
CSc1cc(C)nc(SC)c1NC(=O)CN1CCN(CCSc2nc3ccccc3[nH]2)CC1,,"mouse Crl:CD1 (ICR) female, olfactory bulb","intranasal repeated, 32.4 µg in 0.01 N HCl, 45 min",,concentration,6 ng/g
O=C1CN(/N=C/c2ccc(-c3ccc([N+](=O)[O-])cc3)o2)C(O)=N1,,"Sprague-Dawley rat, male, liver","oral, 100 mg/kg, 6 h, single low dose",direction not given,hepatocyte necrosis score,0
CN[C@H]1CN(c2ccc3c(=O)c(C(=O)O)cn(-c4nccs4)c3n2)C[C@@H]1OC,,"human patients, plasma","intravenous, 9 to 50 mg/m^2 twice weekly, day 4, cycle 1, mean, noncompartmental",,clearance,71.5 mL/min
Cc1cc(Nc2cc3ncccc3c(N[C@@H]3C[C@H]4CC[C@@H](C3)N4CCC#N)n2)n[nH]1,,"beagle dog, female, plasma","oral, 100 mg/kg/day, last day of 13 weeks",,Cmax,368 ng/mL
CC(C(=O)O)c1ccc(-c2ccccc2)c(F)c1 (centres unmarked),,"rabbit, male, plasma","oral, 2.58 mg/kg, single dose",,Vd,0.09 ± 0.02 L/kg
CC1=C2C[C@H]3[C@@H](CC[C@@H]4C[C@H](NS(C)(=O)=O)CC[C@@]43C)[C@@H]2CC[C@@]2(C1)O[C@@H]1C[C@H](C)CN[C@H]1[C@H]2C,,"patients, plasma","oral, 30 mg daily, day 22, cycle 1",,AUC(0-24),508 ng·h/mL
Cl.NCCc1ccc(Oc2ccc(-c3noc(-c4ccc(O)cc4)n3)cc2)cc1,,male Sprague Dawley rats,"oral, 30 mg/kg, 0 to 48 h",reference: dose,unchanged drug in faeces,0.42%
CN(Cc1cnc2nc(N)nc(N)c2n1)c1ccc(C(=O)N[C@@H](CCC(=O)O)C(=O)O)cc1,,Sprague-Dawley rat,"oral, 5.0 mg/kg",,mean residence time,4.79 ± 0.44 h
CC(=O)O[C@H]1C(=O)[C@@]2(C)[C@H]([C@H](OC(=O)c3ccccc3)[C@]3(O)C[C@H](OC(=O)[C@H](O)[C@@H](NC(=O)c4ccccc4)c4ccccc4)C(C)=C1C3(C)C)[C@]1(OC(C)=O)CO[C@@H]1C[C@@H]2O,non-compartmental,"human patients, plasma","intravenous, 200 mg/m^2, added: lenvatinib 6 mg twice daily",,volume of distribution at steady state,80.9 ± 16.6 L
COc1nnc2ccc(N3CCC(c4ccc(OCCN5CCN(C)C(=O)[C@H]5C)cc4)CC3)nn12,population PK model,"Han Wistar rats, plasma",oral,,ka,1.7 h⁻¹
COc1ccc(-c2oc3c(OC)c(OC)c(OC)c(OC)c3c(=O)c2OC)cc1OC,,"C57BL/6 mouse, male, feces","oral, 1% w/w in diet, 6 weeks, orange peel extract diet",reference: content in orange peel,tissue to peel content ratio,81.7%
CCc1ccc(Cc2ccc3c(c2)[C@]2(OC3)O[C@H](CO)[C@@H](O)[C@H](O)[C@H]2O)cc1,,"Wistar rat, male, small intestine","oral, dose not given, 8 h",reference: small intestine over plasma concentration,tissue/plasma ratio,250 ± 114
CC(C)(/C=C(\C#N)C(=O)N1CCC[C@@H](n2nc(-c3ccc(Oc4ccccc4)cc3F)c3c(N)ncnc32)C1)N1CCN(C2COC2)CC1,,healthy human,"oral, 1200 mg, grade 2",reference: participants,moderate treatment-related TEAEs,25%
CCCSc1nc(N[C@@H]2C[C@H]2c2ccc(F)c(F)c2)c2nnn([C@@H]3C[C@H](OCCO)[C@@H](O)[C@H]3O)c2n1,,"female Wistar Han rats, plasma","oral, 60 mg/kg/day, week 26, carcinogenicity study",,AUC,131 µM·h
C[C@](N)(Cc1ccc(O)c(O)c1)C(=O)O,,supercritical carbon dioxide,"5 h, 343 K, 30 MPa, density 788.9 kg/m3",,solubility,428 µg/mL
CN[C@H](CC(C)C)C(=O)N[C@H]1C(=O)N[C@@H](CC(N)=O)C(=O)N[C@H]2C(=O)N[C@H]3C(=O)N[C@H](C(=O)N[C@H](C(=O)O)c4cc(O)cc(O)c4-c4cc3ccc4O)[C@H](O)c3ccc(c(Cl)c3)Oc3cc2cc(c3O[C@@H]2O[C@H](CO)[C@@H](O)[C@H](O)[C@H]2O[C@H]2C[C@](C)(N)[C@H](O)[C@H](C)O2)Oc2ccc(cc2Cl)[C@H]1O,microdialysis,"pig, Danish Landrace, cancellous bone","intravenous, 1000 mg over 100 min, 450 min dosing interval, added: 4.0 µg/mL MIC",reference: dosing interval,time above MIC,66%
CC(C)=CCC[C@](C)(O[C@@H]1O[C@H](CO)[C@@H](O)[C@H](O)[C@H]1O)[C@H]1CC[C@]2(C)[C@@H]1[C@H](O)C[C@@H]1[C@@]3(C)CC[C@H](O[C@@H]4O[C@H](CO)[C@@H](O)[C@H](O)[C@H]4O[C@@H]4O[C@H](CO)[C@@H](O)[C@H](O)[C@H]4O)C(C)(C)[C@@H]3CC[C@]12C,,"rat, extracted tissue homogenate QC samples","1.0 µg/mL, 24 h, 15 °C, autosampler",,post-preparative stability accuracy,93.5 ± 8%
COc1ccc(-c2nc(OCC(F)(F)F)nn2-c2ccc(OC)cc2)cc1 [carbon-11 labelled],PET,"rhesus monkey, whole brain","dose not given, 85 min, baseline",,brain radioactivity,1.99 SUV
COc1ccc2cc3[n+](cc2c1OC)CCc1cc2c(cc1-3)OCO2,,rat plasma QC sample,"0.5 ng/mL nominal, 24 h, low QC level autosampler stability",,measured concentration,0.45 ± 0.05 ng/mL
CCCC[C@@H]1NC(=O)[C@@H](NC(=O)[C@H](CCC(=O)O)NC(=O)CNC(=O)CN2CCN(CC(=O)O)CCN(CC(=O)O)CCN(CC(=O)O)CC2)CCCCNC(=O)C[C@@H](C(N)=O)NC(=O)[C@H](C(C)C)NC(=O)[C@@H]2CCCN2C(=O)[C@H](CCCNC(=N)N)NC(=O)CNC(=O)[C@H](Cc2c[nH]c3ccccc23)NC(=O)[C@H](CCCNC(=N)N)NC(=O)[C@@H](Cc2ccccc2)NC(=O)[C@H](Cc2c[nH]cn2)NC(=O)[C@H](CCC(=O)O)NC1=O [indium-111 labelled],,"C57 mice, B16/F10 lung metastatic melanoma, brain","intravenous, 0.037 MBq, 24 h",,tissue uptake,0.03 ± 0.03 %ID/g
C[C@]12CC[C@@H]3c4ccc(O)cc4CC[C@H]3[C@@H]1C[C@@H](O)[C@@H]2O,GC-MS,"breast cancer women on NSAI, serum","vaginal, 0.03 mg daily, 0.5 h, day 28",,maximum serum concentration,0.0129 ng/mL
C[C@@H]1CCN(C(=O)CC#N)C[C@@H]1N(C)c1ncnc2[nH]ccc12,equilibrium dialysis,"SIDM rats, fresh plasma","10 µg/mL, 24 h, 37 °C",,unbound fraction,0.781
CC(C)=CCC[C@](C)(O[C@@H]1O[C@H](CO[C@@H]2O[C@H](CO)[C@@H](O)[C@H](O)[C@H]2O)[C@@H](O)[C@H](O)[C@H]1O)[C@H]1CC[C@]2(C)[C@@H]1[C@H](O)C[C@@H]1[C@@]3(C)CC[C@H](O[C@@H]4O[C@H](CO)[C@@H](O)[C@H](O)[C@H]4O[C@@H]4O[C@H](CO)[C@@H](O)[C@H](O)[C@H]4O)C(C)(C)[C@@H]3CC[C@]12C,,"rat, extracted plasma QC samples","2.0 µg/mL, 24 h, 15 °C, autosampler",,post-preparative stability accuracy,94.4 ± 4%
CCCC[C@H](NC(C)=O)C(=O)N[C@H]1CCC(=O)NC[C@@H](C(=O)N[C@@H](Cc2c[nH]c3ccccc23)C(N)=O)NC(=O)[C@H](CCCNC(=N)N)NC(=O)[C@@H](Cc2ccccc2)NC(=O)[C@H](Cc2c[nH]cn2)NC1=O,,"female rat, plasma","subcutaneous, 1 mg/kg/day, multiple doses, once daily",,AUC(0-inf),829 ng·h/mL
CC(C)C[C@H](NC(=O)[C@H](CC(C)C)NC(=O)[C@@H](Cc1c[nH]c2ccccc12)NC(=O)[C@H](Cc1ccccc1)NC(=O)[C@@H](NC(=O)[C@@H](N)CCCCN)[C@@H](c1ccccc1)c1c[nH]c2ccccc12)C(N)=O,RP-HPLC Jupiter Proteo,,acetonitrile/water TFA gradient,,HPLC retention,54.7 %B
Cc1ccc(NC(=O)c2ccc(CN3CCN(C)CC3)cc2)cc1Nc1nccc(-c2cncc(-c3oncc3C)c2)n1,,"Parkinson's disease patients, plasma","oral, 100 mg once daily, day 7, 7-day dosing, mean",,dose-normalised Cmax,33.2 ng/mL/mg
COc1ccc(-c2cc(=O)c3c(OC)c(OC)c(OC)c(OC)c3o2)cc1,,"C57BL/6 mouse, male, feces","oral, 1% w/w in diet, 6 weeks, orange peel extract diet",reference: content in orange peel,tissue to peel content ratio,86.2%
C=CCn1c(=O)c2cnc(Nc3ccc(N4CCN(C)CC4)cc3)nc2n1-c1cccc(C(C)(C)O)n1,,"human glioblastoma patients, brain tumour tissue",,,unbound fraction,0.067 ± 0.013

# Repeated from above:
SMILES,assay,test system,conditions,how to read,endpoint,value
CC(C(=O)O)c1ccc(-c2ccccc2)c(F)c1 (centres unmarked),,"rabbit, male, plasma","oral, 2.58 mg/kg, single dose",,Vd,0.09 ± 0.02 L/kg
CC1=C2C[C@H]3[C@@H](CC[C@@H]4C[C@H](NS(C)(=O)=O)CC[C@@]43C)[C@@H]2CC[C@@]2(C1)O[C@@H]1C[C@H](C)CN[C@H]1[C@H]2C,,"patients, plasma","oral, 30 mg daily, day 22, cycle 1",,AUC(0-24),508 ng·h/mL
